# Published values gathered from unrelated publications.
# Numbered parts are unrelated; each lists some results of a single study. Substitutions count along the parent as printed.

# Study 1
# Target: ABI1, truncated, D143A, DHFR fusion (Arabidopsis thaliana)
# Method: DHFR PCA, deep sequencing
# Sample: yeast
# Notes: methotrexate growth selection, single substitutions
# Added: (+)-ABA 17 µM
# Reference: wild-type fitted maximum
# Reading: higher = stronger binding
# Starting sequence: PYL1, truncated, DHFR fusion (Arabidopsis thaliana); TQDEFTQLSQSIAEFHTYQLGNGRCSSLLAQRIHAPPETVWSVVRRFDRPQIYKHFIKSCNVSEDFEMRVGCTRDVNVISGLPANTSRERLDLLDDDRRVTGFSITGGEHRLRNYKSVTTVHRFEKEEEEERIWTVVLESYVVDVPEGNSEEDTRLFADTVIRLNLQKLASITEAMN; partner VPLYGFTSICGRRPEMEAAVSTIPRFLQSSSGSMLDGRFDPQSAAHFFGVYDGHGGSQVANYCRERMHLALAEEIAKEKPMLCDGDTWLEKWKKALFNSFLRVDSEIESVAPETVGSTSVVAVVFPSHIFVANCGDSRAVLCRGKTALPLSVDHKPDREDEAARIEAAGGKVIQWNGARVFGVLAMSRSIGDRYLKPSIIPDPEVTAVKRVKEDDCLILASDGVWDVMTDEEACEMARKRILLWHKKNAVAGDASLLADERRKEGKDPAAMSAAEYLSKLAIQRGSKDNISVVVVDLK
Change,relative binding score [%]
L166K,4.03
D96K,-1.62
G81N,3.09
V137N,12.4
K116G,8.21
E64F,66
S59V,50.3
Q31T,35.1
I133E,107

# Study 2
# Target: CCNE1, cyclin fold, Cln2 fusion (human)
# Method: yeast growth competition, sequencing
# Sample: yeast
# Notes: weak parent motif
# Reference: not given
# Reading: higher = stronger binding
# Starting sequence: CUX1 docking peptide (human); SRIRRELFIEEIQ
Change,normalised enrichment score
SRIRRALFIEEIQ [E6A],0.944
SRIRRELFIEEIA [Q13A],1.17
SRIRKELLIEEIQ [R5K F8L],0.253
SRIRRELFIAEIQ [E10A],0.609
SRARRELFIEEIQ [I3A],1.99
SAIRRELFIEEIQ [R2A],-0.0497
SRIRRELAIEEIQ [F8A],0.533

# Study 3
# Target: RNA binding protein fox-1 homolog 2, RRM domain, GST-SBP tag (RBFOX2, Homo sapiens, UniProt O43251-10, residues 100-194)
# Method: RNA Bind-n-Seq
# Molecule type: RNA
# Sample: in vitro
# Concentration: 365 nM
# Notes: natural RNA segment, single round, ends assumed
# Reference: no-protein control
# Reading: higher = stronger binding
# Shared flanks, not repeated: GGGAGUUCUACAGUCCGACGAUC … UGGAAUUCUCGGGUGCCAA
# Target sequence (chain): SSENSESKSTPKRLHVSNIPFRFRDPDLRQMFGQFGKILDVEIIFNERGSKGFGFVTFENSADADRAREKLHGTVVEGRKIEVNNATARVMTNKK
Sequence,RBNS enrichment (R)
CACAAAACACUAGUGAAGCCUGCUGAACUAAUUCUGCCUCUGGAAAUCUUUUCUGGUUCUUUACAGUUUGUUGUUUUGUUUUGAUCCAAGCUUAGUUUGUUACUAUGUGU,2.39
GGCACUUGUCUACAAGUGUGUCCCAACACAGUCCUGGGCCACUUUCCCCACCCUGGGGAGCACAUAAAGAAGCUUGCCAAGGGGGGCGUCCUUGCUCCCCAGUUGUCCUG,0.257
UUUCUGAUCCUUUCCCCUGCCUGGUCUAGCUCCUCUCCAAACAGCCAUGCCCUCCAAAUGCUAGAGACCUGGGCCCUGAACCCUGUAGACAGAUGCCCUCAGAAUUGGGG,0.515
UGUCAUGCUGAUGUGAACACAUCUUACUCUGAAUAAAAAGGUGUUGCCACGUUUGUAGCACGAAGGAUCUCUAAUGGGUCUGAGUCUUCACUGGAGCGUGCCAUCUGGGC,0.344
UCAGAGUGAGGGGCAUAGUGAAAAAGGAACAGCCAUGCCUCAAAAUCAAAUCAUUUGCAUUCCCACAGCAUCCUGAAUACCGACUACCUCUUCACUUGCUAAAGCAGCUA,0.38
ACAUUUGGCCAUAUUGGUGCUGCUGUACCAUAGUGUAGACUUUUACAGCUGUGAGGGUGGCUAUUGAGUUCCUUCCAGUGUCUCAAGUCACAGGUGUGUGCAGUUGUGAA,0.429
UCGGGCCAGACCGAUGUGGAUCACCCGCUGUGUGAGGAAUGCACAGACACUCUUUUAGACCAGCUGGACACUCAGCUCAAUGUCACUGAGAAUGAAUGUCAGAACUACAG,1.52
AGUAUGCAACCAGAACACAGGAGAAGAAAAGCUCCAGGAUCCCUGUCCCCAUCUGUCCUCUUGAUGUGAGAGAGACUCUGAGACUUCUUCCAUCGCAAUGACCUGUAUUA,1.19
UGAUCACAGGUGAUUCACACGUACACACAUAAACACACCCACCAGUGCAGCCUGAAGUAACUCCCACAGAAACCAUCAUCGUCUUUGUACAUCGUAUGUACAAUGCAAUC,0.546
ACACUGUGCACAUCUGUGUCUUGUUUGGAAUAUUGUCCAUUGUCCAAUCCUAUGUUUUUGUUCAAAGCCAGCGUCCUCCUCUGUGACCAAUGUCUUGAUGCAUGCACUGU,18.8
CACCUGCAUGGGCAAGUGGUUCGCCAGCCGCCAGGACCCCCUGCGCCCUGACACCUGGCUGGCCAGCCGCGUGCCCUGCCCCACCUGCCGCGCACGCUUCUGCAUCCUGG,5.56
ACCUUAAUGCAAAAUCAAAAUUAUAAAAUAAAAUCAUUGACAUUGAUGGGUUUUUUUGCAUAUAAGCUAUAGGCCUCCCGCUUUAUUUCAUGAGGAGCCCAUAGGCAGGU,0.705

# Study 4
# Target: TAR DNA-binding protein 43, full length, His tag (TARDBP, Homo sapiens, UniProt Q13148, residues 1-414)
# Method: RNA Bind-n-Seq
# Molecule type: RNA
# Sample: in vitro
# Concentration: 20 nM
# Notes: 6-mer, flanks averaged, single round
# Added: 150 mM LiCl
# Reference: input library
# Reading: higher = stronger binding
Sequence,6-mer enrichment (R)
GACAAA,0.871
UGAGUU,1.12
UGCGAC,0.921
CUGUGC,0.99
UGACUU,0.902
CCUUGC,1.1
GGAAAA,0.915
UAGAAU,0.954
UCUAAU,0.929
GCAUCU,0.842
UGUAUC,0.959
AACUAC,0.837

# Study 5
# Target: Fragile X messenger ribonucleoprotein 1, C-terminal low-complexity region (Fmr1, Mus musculus, UniProt P35922)
# Method: RNA Bind-n-Seq
# Molecule type: RNA
# Sample: in vitro
# Concentration: 200 nM
# Notes: whole 134-nt RNA, ends assumed
# Added: 150 mM KCl
# Reference: input library
# Reading: higher = stronger binding
# Shared flanks, not repeated: GGGAGUUCUACAGUCCGACGAUC … UGGAAUUCUCGGGUGUCAAGG
Sequence,log2 enrichment
UGUGCUACACAUCGUAUGUACCGAAUCGGGGCCCCCCCGGGGCCCCCCCGGGCCCCCCCGGGGAAAGUAUUAUGUUACGCCGUUCGGAUC,-1.73
UCCUCAAGUCCUGUGCUACACAUCGUAUGUACCGAAUCGGGUGGUGGGUGGAAAGUAUUAUGUUACGCCGUUCGGAUCUGCACUUCCAGC,0.228
AGUCCUGUGCUACACAUCGUAUGUACCGAAUCGGAAAAAGGAAAAAGGUUUUUUUGGAAAGUAUUAUGUUACGCCGUUCGGAUCUGCACU,-1.38
CUCAAGUCCUGUGCUACACAUCGUAUGUACCGAAUCGGUUGGUUGGGUUGGGGAAAGUAUUAUGUUACGCCGUUCGGAUCUGCACUUCCA,-0.0918
UGGCCCUGGUGGCAUGCGGGGAGGAAGAGGUGGCCUCAUGGAUCGUGGUGGUCCCGGUGGAAUGUGCAGAGGUGGCCGUGGUGGAGACAG,0.366
UAACUUUAGAGGAGGAUCUGAUGUAUAUGGCAGUGGACGUGGAUUUGGGGAUGGCUAUAAUGGGUAUGGAGGAGGACCUGGAGGUGGCAA,0.244
GUCCUGUGCUACACAUCGUAUGUACCGAAUCGGGAGGGAAAAAAAGGGUUUUUUUGGGAAAGUAUUAUGUUACGCCGUUCGGAUCUGCAC,-0.18
AGUCCUGUGCUACACAUCGUAUGUACCGAAUCGGGGUUUGGGGUUUUUGGGGAGGGGAAAGUAUUAUGUUACGCCGUUCGGAUCUGCACU,0.987
CACAGACAACACGCACCCACACAGACACAGAGGGGAGGGGUUGGGAUGGGGACAGGGUGCACAGCAGGGCGGGGUAGGACCCCAGCCCCU,1.27
CCUGUGCUACACAUCGUAUGUACCGAAUCGGCCCCCCGGGCCCCCCGGGGCCCCCCGGGGAAAGUAUUAUGUUACGCCGUUCGGAUCUGC,-0.786

# For quick reference, copied from above (study 5):
Sequence,log2 enrichment
CCUGUGCUACACAUCGUAUGUACCGAAUCGGCCCCCCGGGCCCCCCGGGGCCCCCCGGGGAAAGUAUUAUGUUACGCCGUUCGGAUCUGC,-0.786
CACAGACAACACGCACCCACACAGACACAGAGGGGAGGGGUUGGGAUGGGGACAGGGUGCACAGCAGGGCGGGGUAGGACCCCAGCCCCU,1.27
GUCCUGUGCUACACAUCGUAUGUACCGAAUCGGGAGGGAAAAAAAGGGUUUUUUUGGGAAAGUAUUAUGUUACGCCGUUCGGAUCUGCAC,-0.18
AGUCCUGUGCUACACAUCGUAUGUACCGAAUCGGAAAAAGGAAAAAGGUUUUUUUGGAAAGUAUUAUGUUACGCCGUUCGGAUCUGCACU,-1.38
UGGCCCUGGUGGCAUGCGGGGAGGAAGAGGUGGCCUCAUGGAUCGUGGUGGUCCCGGUGGAAUGUGCAGAGGUGGCCGUGGUGGAGACAG,0.366
UAACUUUAGAGGAGGAUCUGAUGUAUAUGGCAGUGGACGUGGAUUUGGGGAUGGCUAUAAUGGGUAUGGAGGAGGACCUGGAGGUGGCAA,0.244
CUCAAGUCCUGUGCUACACAUCGUAUGUACCGAAUCGGUUGGUUGGGUUGGGGAAAGUAUUAUGUUACGCCGUUCGGAUCUGCACUUCCA,-0.0918
UGUGCUACACAUCGUAUGUACCGAAUCGGGGCCCCCCCGGGGCCCCCCCGGGCCCCCCCGGGGAAAGUAUUAUGUUACGCCGUUCGGAUC,-1.73
